Results gathered from unrelated publications.
Every numbered part comes from another study and shows a few of its results, in no order. Substitutions count along the parent as printed.

Set 1 — technique: RNA Bind-n-Seq; form: RNA; matrix: in vitro; tested at: 365 nM; baseline: no-protein control; direction: higher = stronger binding
Target: RNA binding protein fox-1 homolog 2, RRM domain, GST-SBP tag (RBFOX2, Homo sapiens, UniProt O43251-10, residues 100-194)
Notes: natural RNA segment, single round, ends assumed
Constant ends, left off below: GGGAGUUCUACAGUCCGACGAUC … UGGAAUUCUCGGGUGCCAA
Target sequence (chain): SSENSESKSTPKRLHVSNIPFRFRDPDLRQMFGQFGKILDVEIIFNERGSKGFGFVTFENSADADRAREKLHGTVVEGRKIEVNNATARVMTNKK
Sequence | RBNS enrichment (R)
UGGAAGUGUUCAAGAAAUAAAAAUCAACUUGUGUACUGAUAAAAUACUCUAGCCUGGGCCAGAGAAGAUAAUGUUCUUUAAUGUUGUCCAGGAAACCCUGGCUUGCUUGC | 1.98
AGGUUCCGUGUGGAGGUGGCACUGGGCCGGGCCUCCCUCUCAGGCUCCUUUGCUGCCCACUUGUAAGUUUAAAUAAGGACACCGCCCUACACAAACCUCACCCCUGUCAC | 0.39
UUUAAUUUUUUUGUACUAGAAAAAAAUUUGAACAUUUUAGUUCUUGGUUAUAAAAAUGUUAAUUCAGAAUUAGUUUAAUGCCUUAAUUAAACUAAUUAAUAGCUUUGGAC | 0.624
UACCAAACAUUUCCUAAACUCUCUAGUUAGAUAUCUGACUUGGGAGUAUUAAAAAUUGGGUCUAUGACAUAUUGUCCAAAAGGAAUGCUGUUCUUAAAGCAUUAUUUACA | 0.341
UUUCUCAUGAGCGGGGAGCAUAACUGUUAGUUAUUUGUGGUGAUUAUGGCAGAUUUCAAGAUCACGUGACAAUGCAGUCUCUAAUUGUUCACUGUCCAUAUAUAUGAUUU | 0.728
UGUAGGUGUUUUCAUCUGUCAUGAAGGGACAGAUGAGAUCCUACUACUUGCGAAGUUUCUAUGCAUACCUUUAAGUUCAGGCCCUAGGUGAAGGACAGUCCCUCAGCCUU | 0.493
CUGCCCCUCCUCCUUCCAGCACCUGCCAGAGCUUCUCCAGGAGGCCAAGCAGAGGCUCCCCUCAUGAAGGAAGCCAUUGCACUGUGAACACUGUACCUGCCUGCUGAACA | 0.791
GAUGAGUCCUUCCCUGCCUGCAAGAUUGAGUUCUGAAGAGCCGCCCUCCCUUCCCCAAGGAUCCACUCCCCCAGCUCCUUUAGAGAAUGGCUACUGCUGAGUCCUUUGGG | 1.55
CUCAGGAAAGCUGUUUUUACACUGAACAGCCAGCCUUGCUCUGUAGCAGGUGUGCUCGAGGACUGUGGACGUUGACUUCCCUUGGAUCCUUACAUGUAAACUUGCGUGUU | 0.221
UCCUGCCGCCUUCCAGUUCCUUGGUGUCCCGUGCACCCCUUCUGUCUGUCCCCUUUCAUGGCUGUGCAGCCGUCCCGCUGGAGUGGCCAUGUCCCUUGUGCAUUGAGUGC | 1.28
CUCAUCUGAAUACCAAGCACAGAAAUGAGUGGUGUGACUAAUUCCUUACCUCUCCCAAGGAGGGUACACAACUAGCACCAUUCUUGAUGUCCAGGGAAGAAGCCACCUCA | 0.272
AUGUCAUUUUCCUACUGCCAUAGAUACCCUAAGCCCAGGGCCCCUUGAGGCCCAGACUCAGCCUGCCCACUGGUGCCGGAGACGGAGUGGAGUGGGCCUGGAUCCGAGGG | 0.205

Set 2 — technique: protein-binding microarray; form: double-stranded DNA, one strand shown; matrix: in vitro; tested at: 2200 nM top; notes: 60-bp whole probe; with: salmon DNA 0.4 mg/ml; baseline: random background probes; direction: higher = stronger binding; constant ends, left off below: GCCTAGCAC … GTCTTGATTCGCTTGACGCTGCTG
Target: Interferon regulatory factor 7, full length, phosphomimetic (IRF7, Homo sapiens, UniProt Q92985, residues 1-503, S471D/S472D/S475D/S476D/S477D/S483D/S484D/S487D)
UniProt Q92985, sequence (whole entry, unmodified, looked up): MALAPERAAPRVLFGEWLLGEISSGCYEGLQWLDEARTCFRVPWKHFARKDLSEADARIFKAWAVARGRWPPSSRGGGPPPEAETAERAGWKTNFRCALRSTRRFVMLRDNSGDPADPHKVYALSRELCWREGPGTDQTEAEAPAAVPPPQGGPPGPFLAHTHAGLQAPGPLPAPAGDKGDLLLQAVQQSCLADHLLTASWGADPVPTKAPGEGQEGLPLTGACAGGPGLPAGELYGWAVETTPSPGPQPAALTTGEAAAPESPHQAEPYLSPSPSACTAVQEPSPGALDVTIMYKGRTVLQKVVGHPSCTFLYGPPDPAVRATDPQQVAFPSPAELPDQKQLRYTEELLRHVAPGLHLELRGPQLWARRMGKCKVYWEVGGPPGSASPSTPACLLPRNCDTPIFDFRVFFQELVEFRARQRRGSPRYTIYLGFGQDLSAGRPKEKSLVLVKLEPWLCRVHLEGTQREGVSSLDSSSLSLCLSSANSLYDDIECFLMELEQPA
Sequence | fitted relative affinity
TTGGATTTCGGGTATCGATTAGTGCTA | 2.8 z-score
TTAGATTTCGGGACGGGATTAGTGCTA | 1.37 z-score
CTCTTTCTCTGCTACCCTTTGGTGCTA | 2.61 z-score
GACGCTCTCGGTCTCGGGACGTGCTAG | 0.441 z-score
TTAGAACTGGGGTCTGGATTAGTGCTA | -0.189 z-score
TTAGGTTTCCTACAGCTTTAGTGCTAG | 0.575 z-score
TTAAAACTGAGTTTCGATTAGTGCTAG | 3.59 z-score
TTAGATATCATACTGGATTAGTGCTAG | -0.0318 z-score
TCTGTTTCTGATATGGTATGGTGCTAG | 3.36 z-score
GACGATTTCAGCTTCGAGACGTGCTAG | 0.793 z-score
TCATTTCCCAAGTTTATAACTGTGCTA | 1.95 z-score
GTGTGTCTGATTATTTACATGTGCTAG | 0.976 z-score
CACCTTCTTCATCAAGGACAGTGCTAG | 1.31 z-score
GACGATTTCGGCTTTCGAGACGTGCTA | 3.88 z-score
TTAGGTATCGGGTCTGGGTTAGTGCTA | 0.264 z-score
TTAGGTCTCCTTATCCCTTAGTGCTAG | 1.16 z-score
GACGGTCTCGGTCTCGGGAAGTGCTAG | -0.0437 z-score
CCAGGTTGGGAGGGGTAGGGGTGCTAG | 0.567 z-score
ACAGCTCACGCTTTGGAAAGGTGCTAG | 0.45 z-score
TCACCTCTCTCTTTCCAACTGTGCTAG | 2.9 z-score
GACGGTCTCGGTCTCGGGCCGTGCTAG | -0.306 z-score
TTAGAACTGAGACAGGATTAGTGCTAG | -0.788 z-score
AGAAACTGTGAGGAGGGGAAGTGCTAG | -0.173 z-score
ATGTCTTCCCCTCTCTTTCCGTGCTAG | 2.6 z-score
GACGGTATCGACTTTCTGGACGTGCTA | 1.21 z-score

Set 3 — technique: DHFR PCA, deep sequencing; matrix: yeast; with: (+)-ABA 58 µM; baseline: wild-type fitted maximum; direction: higher = stronger binding
Target: ABI1, truncated, D143A, DHFR fusion (Arabidopsis thaliana)
Notes: methotrexate growth selection, single substitutions
Starting sequence: PYL1, truncated, DHFR fusion (Arabidopsis thaliana); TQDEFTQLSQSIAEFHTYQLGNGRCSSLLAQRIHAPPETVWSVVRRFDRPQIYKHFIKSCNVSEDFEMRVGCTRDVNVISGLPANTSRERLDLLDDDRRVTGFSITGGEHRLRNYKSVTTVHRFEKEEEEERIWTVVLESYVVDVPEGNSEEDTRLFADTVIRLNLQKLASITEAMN
Substitution | relative binding score [%]
E64T | 82.6
F66I | 68.5
S63K | 85.6
L20C | 94.8
R49A | 83.5
V145L | 65
Q2L | 90.5
R74V | -4.62
L91H | -1.85
R24N | 80.5
T39E | 83.7
E147S | 80
T154Y | -9.29
R111C | 43.2
E131H | 94.8
E67M | 77.4
T120H | 5.35
N114Q | 29.6
E89W | -13.9
T120M | 4.38
V78P | 35.9
C72D | 84.2
E174S | 71.1
E131L | 92.3
K54P | -6.79

Set 4 — technique: RNA Bind-n-Seq; form: RNA; matrix: in vitro; tested at: not given; baseline: input RNA pool; direction: higher = stronger binding
Target: RING finger protein unkempt homolog, zinc fingers 1-6, GST-SBP tag (UNK, Homo sapiens, UniProt Q9C0B0, residues 30-357)
UniProt Q9C0B0, sequence (30-357, looked up): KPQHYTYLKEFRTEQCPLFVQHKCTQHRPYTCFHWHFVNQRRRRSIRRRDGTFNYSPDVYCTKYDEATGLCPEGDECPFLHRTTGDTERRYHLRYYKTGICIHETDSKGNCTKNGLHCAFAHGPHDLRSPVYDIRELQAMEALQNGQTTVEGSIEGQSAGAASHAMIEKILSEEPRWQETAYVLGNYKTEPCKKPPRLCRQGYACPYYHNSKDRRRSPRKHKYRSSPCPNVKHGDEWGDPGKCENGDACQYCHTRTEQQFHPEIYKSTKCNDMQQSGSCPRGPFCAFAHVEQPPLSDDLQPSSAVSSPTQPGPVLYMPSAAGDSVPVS
Notes: RNA with constant flanks, human-mouse chimeric sites, ends assumed
Constant ends, left off below: GGGAGUUCUACAGUCCGACGAUC … CAACAGAGGAUUGAGCAUCA
Sequence | bound/input enrichment
CCCCAAUACCAUUUGCAGGUCUGGAACUGCACUCUCUUUUUUAAAAAAUAUGCAUAUAUUUUAGGGCUGUAGAUUUAUUUUCCUGGUUUUGUUUUUCAUUGCUGACUUUGAGCACAAGAA | 0.977 ratio
CUGAGGAUACCACUGAAGAGACCUUAAAAGAAUCAUUUUGACGGCUCGUUCGUGCAAAGGAUAGUUAUGAUCGGGAAACUGGUUCUUCCAAAGGGUUUGGUUUUGUAGACUUUAAUAGUG | 0.77 ratio
AAUGUGGAGUUGAGUUCCUUGGCCCGGCUUCCCAGCUUGAAUAAACUUCGAAAAUUGGAACUUAGUGACAAUAUAAUUUCUGGAGGCUUGGAAGUCCUGGCAGAGAAAUGUCCAAAUCUU | 0.764 ratio
UUACCCGAGAACGAGGAUGAAUUGGAGAGCACCAACAGGCGCUACACCAAGAGGGACUGCAGCACUUUCCUCAGAACUAGCGAGACGGGCAUCGUGGACCAGGUCAUGGUCACUCUCAAC | 0.14 ratio
AUGCAGUAUGAGACCAACAGCAUGGACUUCAAAGUUGGGGCAGAUGGGACAGUCUUCGCCACCCGGGAGCUGCAGGUCCCCUCAGAGCAGGUGGCGUUCACGGUGACUGCAUGGGACAGC | 0.191 ratio
AUUGUUGAAGCGAAUCCACUUUUAGAAGCCUUUGGAAAUGCAAAGACUGUUCGCAACAAUAAUAGCAGUCGAUUUGGAAAAUUUGUAGAAAUUCAUUUUAAUGAAAAGAGUUCGGUUGUU | 0.623 ratio
UUACCCGAAAAUGAAGAUGAGCUGGAGAGCACCAACAGGCGCUACACCAAGAGGGACUGCAGCACUUUCCUCAGAACUAGUGAGACGGGCAUCGUGGACCAGGUCAUGGUCACUCUCAAC | 0.186 ratio
GUAGCUGGGACUACAGAAAUGCUGGUAAUUUCAGUCACUUGCUGAUGACUUCUGAUGUCCCAGCAAAUGUUGGCAUUGUUGACUGCUCUGUGAAGACACUCGCAAGGCCACGUCUAAGGU | 0.0929 ratio
GAAUCCUACUCAGGCGGAUUUUGCAACACCAAGCUCACAGCAGCAGCAUCUUAGUCACAGUAGGGUAGUUUUGGGGCUCUGUGGCCAUGGUUUUACUCAUGUGCAGGUUUGGAAAAUGUA | 1.68 ratio
GAGCGUCUCGCUCGAACUGGGAUCAUCGUGACCACUAGUGAGGCUGUCCUCCUACAGCUGGUAGCUGACAAAGACCACCCGAAGUUCAAGGAAAUUCAGAACCUAAUUAAGGCGAGUGCC | 0.165 ratio
CACAGAGCAGCACCUACCCCCUCCUCCUUUCCACACCUGCAAACCCUUUUACUUGGGCUGAAUAUUUAGUGUAAUUACAUCUCAGCUUUGAGGGCUCCUGUGGCAAAUUCCCGGAUUAAA | 0.937 ratio

Some of these lines once more (set 3):
Substitution | relative binding score [%]
E67M | 77.4
T120H | 5.35
N114Q | 29.6
E89W | -13.9
